Measured values gathered from unrelated publications.
Every numbered part comes from another study and shows a few of its results, in no order.

Block 1 — method: aptamer microarray, sandwich; form: DNA with 2'F-ANA; sample: in vitro; tested at: 200 nM; together with: Cy3 exosite-II aptamer, 400 nM; reading: higher = stronger binding
Target: Prothrombin, mature alpha-thrombin (F2, Homo sapiens, UniProt P00734)
Notes: whole 15-mer aptamer, many near background
Strand	mean fluorescence intensity [a.u.]
GGTTGGTGTGGTTGG (2'F-ANA at 2 3 4 6 9 12 15)	713
GGTTGGTGTGGTTGG (2'F-ANA at 1 2 5 11 12 13 14)	66.7
GGTTGGTGTGGTTGG (2'F-ANA at 1 5 6 7 9 10 13 14 15)	55.4

Block 2 — method: universal PBM; form: double-stranded DNA, one strand shown; sample: in vitro; tested at: 600 nM; reading: higher = stronger binding
Target: Sal-like protein 4, full length isoform A (SALL4, Homo sapiens, UniProt Q9UJQ4, residues 1-1053)
Sequence of UniProt Q9UJQ4 (whole entry, looked up): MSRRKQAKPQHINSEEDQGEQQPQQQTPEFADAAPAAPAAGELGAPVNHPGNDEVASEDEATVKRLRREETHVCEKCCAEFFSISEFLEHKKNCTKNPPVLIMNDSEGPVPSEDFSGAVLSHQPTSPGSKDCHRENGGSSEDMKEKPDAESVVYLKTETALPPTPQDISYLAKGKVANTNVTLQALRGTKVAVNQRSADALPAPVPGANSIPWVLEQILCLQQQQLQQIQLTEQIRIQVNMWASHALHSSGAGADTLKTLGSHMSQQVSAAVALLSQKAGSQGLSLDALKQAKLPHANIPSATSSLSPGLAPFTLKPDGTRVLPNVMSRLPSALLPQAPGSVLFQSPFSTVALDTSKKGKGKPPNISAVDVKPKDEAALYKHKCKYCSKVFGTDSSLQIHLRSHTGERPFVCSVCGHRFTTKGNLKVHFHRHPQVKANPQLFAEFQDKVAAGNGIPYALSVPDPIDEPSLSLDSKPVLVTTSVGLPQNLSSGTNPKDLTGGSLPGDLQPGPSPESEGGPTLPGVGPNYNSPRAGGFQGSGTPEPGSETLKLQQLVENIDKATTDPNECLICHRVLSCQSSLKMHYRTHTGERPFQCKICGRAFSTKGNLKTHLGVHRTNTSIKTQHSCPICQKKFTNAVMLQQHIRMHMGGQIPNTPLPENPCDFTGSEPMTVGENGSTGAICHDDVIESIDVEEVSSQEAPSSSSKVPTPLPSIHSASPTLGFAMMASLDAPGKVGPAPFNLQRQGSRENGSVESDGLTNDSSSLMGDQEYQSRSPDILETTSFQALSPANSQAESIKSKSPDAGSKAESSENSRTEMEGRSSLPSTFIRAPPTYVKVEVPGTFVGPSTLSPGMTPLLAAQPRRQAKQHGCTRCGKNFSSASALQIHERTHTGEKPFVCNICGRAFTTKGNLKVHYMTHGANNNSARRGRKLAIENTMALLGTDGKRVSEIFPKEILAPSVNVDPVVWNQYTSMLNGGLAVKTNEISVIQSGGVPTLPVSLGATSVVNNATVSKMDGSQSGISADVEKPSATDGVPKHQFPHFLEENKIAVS
Notes: 8-mer, flanks averaged, mean of replicates
Strand	E-score
CGCATTTC	0.0314
GTCCTCTA	-0.11
AAGCTTCG	-0.208

Mixed results
IRF7 S471D/S472D/S475D/S476D/S477D/S483D/S484D/S487D full length, phosphomimetic: Interferon regulatory factor 7, full length, phosphomimetic (IRF7, Homo sapiens, UniProt Q92985, residues 1-503, S471D/S472D/S475D/S476D/S477D/S483D/S484D/S487D)
Sequence of UniProt Q92985 (whole entry, unmodified, looked up): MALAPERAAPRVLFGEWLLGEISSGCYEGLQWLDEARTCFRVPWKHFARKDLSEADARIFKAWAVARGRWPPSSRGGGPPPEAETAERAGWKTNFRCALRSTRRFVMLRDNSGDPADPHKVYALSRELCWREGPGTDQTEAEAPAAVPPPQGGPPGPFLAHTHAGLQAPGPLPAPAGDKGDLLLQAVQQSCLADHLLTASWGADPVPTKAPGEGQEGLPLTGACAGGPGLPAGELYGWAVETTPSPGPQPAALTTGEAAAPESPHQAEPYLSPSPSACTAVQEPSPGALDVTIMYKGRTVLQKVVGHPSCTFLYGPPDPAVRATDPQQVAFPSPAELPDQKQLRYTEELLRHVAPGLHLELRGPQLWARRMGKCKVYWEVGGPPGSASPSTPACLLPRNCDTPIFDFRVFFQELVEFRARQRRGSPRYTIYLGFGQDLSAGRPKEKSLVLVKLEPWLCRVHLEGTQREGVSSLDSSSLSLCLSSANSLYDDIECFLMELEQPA
Molecule	target	assay	system	conditions	how to read	quantity	result
GCCTAGCACTTAGGTTTCGGGTATCGGTTGGTGCTAGTCTTGATTCGCTTGACGCTGCTG	IRF7 S471D/S472D/S475D/S476D/S477D/S483D/S484D/S487D full length, phosphomimetic	protein-binding microarray	double-stranded DNA, one strand shown, in vitro	2200 nM top, 60-bp whole probe, together with: salmon DNA 0.4 mg/ml	baseline: random background probes, higher = stronger binding	fitted relative affinity	6.44 z-score
PhoQ, residues 284 288 289 292 302 303 ASSHFY	PhoP, residues 12 14 15 18 19 NYFRM (Escherichia coli, UniProt P23836)	Sort-seq, refers to: YFP reporter	E. coli	PhoQ-PhoP variant library, together with: 10 µM Mg2+	baseline: high Mg2+ state, higher = stronger signaling	fold induction	14.1
GCCTAGCACGACGAACTGAGTCTTGAGACGTGCTAGGTCTTGATTCGCTTGACGCTGCTG	IRF7 S471D/S472D/S475D/S476D/S477D/S483D/S484D/S487D full length, phosphomimetic	protein-binding microarray	double-stranded DNA, one strand shown, in vitro	2200 nM top, 60-bp whole probe, together with: salmon DNA 0.4 mg/ml	baseline: random background probes, higher = stronger binding	fitted relative affinity	-0.000679 z-score
GCCTAGCACGACGGTATCGGCTTCGGGACGTGCTAGGTCTTGATTCGCTTGACGCTGCTG	IRF7 S471D/S472D/S475D/S476D/S477D/S483D/S484D/S487D full length, phosphomimetic	protein-binding microarray	double-stranded DNA, one strand shown, in vitro	2200 nM top, 60-bp whole probe, together with: salmon DNA 0.4 mg/ml	baseline: random background probes, higher = stronger binding	fitted relative affinity	-0.109 z-score

Excerpt of the above (block 2):
Strand	E-score
GTCCTCTA	-0.11
